Results from different studies.
Each line is one published result; not all experiments were run side by side. Numbers after ± are the reported error.
Cell line: 4T1

Compound = FC1(F)Oc2ccc(Cc3c[nH]c4ncc(C(F)(F)F)cc34)cc2O1; test = cell growth or viability, MTT; conditions = 10 µM, 72 h; measurement = inhibition; result = 22%
Compound = FC(F)(F)Sc1ccc(-c2noc(-c3cccs3)c2C(F)(F)F)cc1; test = cell growth or viability, MTT; conditions = 48 h; measurement = IC50; result = 32.5 µM
Compound = O=C1/C(=C/c2ccc(B(O)O)cc2)CC/C1=C\c1ccc(B(O)O)cc1; test = cell growth or viability, MTT; conditions = 24 h; measurement = IC50; result = 50 µM
Compound = Cn1cncn1.[Ru+2].c1cc(-c2ccc3ccccc3n2)nc(-c2ccc3ccccc3n2)c1.c1ccc2cc3nc4c5cccnc5c5ncccc5c4nc3cc2c1; test = MTT; how to read = baseline: dark EC50 over light EC50; measurement = phototherapeutic index; result = 2
Compound = COc1cccc(C(O)c2c[nH]c3ncc(C(F)(F)F)cc23)c1 (stereo not drawn); test = cell growth or viability, MTT; conditions = 10 µM, 72 h; measurement = inhibition; result = 16%
Compound = Clc1ccc2ccc3[n+](c2c1)[Ir-3]12([c]4ccccc4-3)([c]3ccccc3-c3ccc4ccc(Cl)cc4[n+]31)[n+]1ccccc1-c1cccc[n+]12.F[P-](F)(F)(F)(F)F; test = cell growth, MTT; conditions = 72 h; measurement = IC50; result = 0.4 ± 0.03 µM
Compound = CC(=O)Nc1ccc(OC(=O)CCC(=O)[O][Pt-2]23([O]C(=O)CCC(=O)Oc4ccc(NC(C)=O)cc4)([NH2+][C@@H]4CCCC[C@H]4[NH2+]2)[O]C(=O)C(=O)[O]3)cc1; test = Western blot, item: Sam50 and COX II; conditions = 2 µM, 24 h; measurement = protein level; result = decreased
Compound = Fc1ccc(-c2noc(-c3cccs3)c2C(F)(F)F)cc1; test = cell growth or viability, MTT; conditions = 48 h; measurement = IC50; result = 17.3 µM
Compound = C=C1[C@@H]([C@@]2(C)C=CC(=O)C(C)(C)[C@@H]2CC(=O)OC)[C@@H](OC(C)=O)[C@H](OC(C)=O)[C@@]2(C)[C@H](c3ccoc3)C[C@H]3O[C@]132; test = cell growth or viability, MTT; conditions = 48 h; measurement = IC50; result = 88.6 µM
Compound = COc1cc(Cc2c[nH]c3ncc(C(F)(F)F)cc23)cc(OC)c1; test = DCFH-DA flow cytometry; conditions = concentration not given, 24 h; measurement = ROS level; result = increased
Compound = CCNS(=O)(=O)c1ccc(COc2ccc3nc4ccc(=O)cc-4oc3c2)cc1; test = Matrigel Transwell; conditions = 1 µM, 48 h; measurement = cell invasion; result = inhibited
Compound = FC(F)(F)c1cnc2[nH]cc(Cc3ccc(Cl)c(C(F)(F)F)c3)c2c1; test = cell growth or viability, MTT; conditions = 10 µM, 72 h; measurement = inhibition; result = 13%
Compound = CC(=O)Oc1c2c(c3ccc4c(c3c1OC(C)=O)C=CC(=O)C4(C)C)OC[C@@H]2C; conditions = concentration not given, 24 h; measurement = Fe2+ level; result = increased
Compound = FC(F)(F)c1ccc(Cc2c[nH]c3ncc(C(F)(F)F)cc23)cc1; test = cell growth or viability, MTT; conditions = 10 µM, 72 h; measurement = inhibition; result = 17%
Compound = Cc1ccc(-c2noc(-c3cccs3)c2C(F)(F)F)cc1; test = cell growth or viability, MTT; conditions = 48 h; measurement = IC50; result = 31.2 µM

A few entries again:
Compound = COc1cccc(C(O)c2c[nH]c3ncc(C(F)(F)F)cc23)c1 (stereo not drawn); test = cell growth or viability, MTT; conditions = 10 µM, 72 h; measurement = inhibition; result = 16%
Compound = Clc1ccc2ccc3[n+](c2c1)[Ir-3]12([c]4ccccc4-3)([c]3ccccc3-c3ccc4ccc(Cl)cc4[n+]31)[n+]1ccccc1-c1cccc[n+]12.F[P-](F)(F)(F)(F)F; test = cell growth, MTT; conditions = 72 h; measurement = IC50; result = 0.4 ± 0.03 µM
